Measured values collected from several papers.
Every numbered part comes from another study and shows a few of its results, in no order.

Block 1 — technique: RNA Bind-n-Seq; molecule type: RNA; sample: in vitro; tested at: not given; setting: RNA with constant flanks, ends assumed; relative to: input RNA pool; reading: higher = stronger binding; endpoint: bound/input enrichment
Target: RING finger protein unkempt homolog, zinc fingers 1-6, GST-SBP tag (UNK, Homo sapiens, UniProt Q9C0B0, residues 30-357)
Sequence of UniProt Q9C0B0 (30-357, looked up): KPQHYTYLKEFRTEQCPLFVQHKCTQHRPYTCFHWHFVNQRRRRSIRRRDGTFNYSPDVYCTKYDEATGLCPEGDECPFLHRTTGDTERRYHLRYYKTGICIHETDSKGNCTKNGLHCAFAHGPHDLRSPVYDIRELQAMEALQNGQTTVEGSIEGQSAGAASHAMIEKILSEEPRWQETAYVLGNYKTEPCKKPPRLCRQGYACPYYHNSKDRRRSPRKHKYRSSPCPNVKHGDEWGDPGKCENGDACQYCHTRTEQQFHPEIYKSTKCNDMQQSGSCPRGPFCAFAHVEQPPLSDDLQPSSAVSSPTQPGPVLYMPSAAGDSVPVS
All sequences stand within: GGGAGUUCUACAGUCCGACGAUC … CAACAGAGGAUUGAGCAUCA
Sequence = CCAGACAGCCCAUCCCCAGACCGAUUUGGGAUGUUGCCCCUGGAUGAGCCUGCUAUUCUUGUCCGUGAAUUCCUAGAUCGUUUUCAAAGCCUUUGUCACUUGGACCUCCAGCUUCCUUCC; value = 0.292 ratio
Sequence = GGAAAUAACAAUCAAAAUAAACCAGGGUUCUUACGAAAGAAUCAGUAUACAAACACCAAAUCCGAAGUCAAGAAAAUCCCUCAGGAAUUGAACAACAUUACCAAGCUCAAUGAACACUUC; value = 0.219 ratio
Sequence = ACUCACGUGCCCAUGUUACAAGUCUGGACUGCCGACAAACCACAUCCACAGGAAGAGUAUUCCGAUUGCCUGUGGGCCCAGAUUCAGAAAUUGAAAAAAGACCGGUGGCAGGAGAGGCAC; value = 0.202 ratio
Sequence = ACAUUAAAGUCCUAAGUCAUCUAAGCCAUUCAUUGCCUGUGAAUUAUUCUGCUUGCUUUUUCCGUCAGGUGCUGCUUUUAAACAUUCUGAUGGGGAGCCUAGGGUUUAAAAUUAGCCUGU; value = 1.45 ratio
Sequence = UUUUACCUGGAUAGGACUCUGUGGCUGGCCAAGUCCACCUCCUCAUCCUUUGCAUCAUUUACCGUUCAACUUUUCCAAGUGGUUUUAAUGAAGCUCAAUUUUGAAACUUACAAAUUGAAA; value = 0.385 ratio
Sequence = AUCAUGGCUACAAACAGACCAGAUACACUGGAUCCUGCUUUGCUGCGUCCAGGAAGAUCCGACCGAAAAAUACAUAUUGAUUUGCCAAAUGAACAAGCAAGAUUAGACAUACUGAAAAUC; value = 1.89 ratio

Block 2 — technique: universal PBM; molecule type: double-stranded DNA, one strand shown; sample: in vitro; tested at: 600 nM; reading: higher = stronger binding; endpoint: E-score
Target: Sal-like protein 4, full length isoform A (SALL4, Homo sapiens, UniProt Q9UJQ4, residues 1-1053)
Sequence of UniProt Q9UJQ4 (whole entry, looked up): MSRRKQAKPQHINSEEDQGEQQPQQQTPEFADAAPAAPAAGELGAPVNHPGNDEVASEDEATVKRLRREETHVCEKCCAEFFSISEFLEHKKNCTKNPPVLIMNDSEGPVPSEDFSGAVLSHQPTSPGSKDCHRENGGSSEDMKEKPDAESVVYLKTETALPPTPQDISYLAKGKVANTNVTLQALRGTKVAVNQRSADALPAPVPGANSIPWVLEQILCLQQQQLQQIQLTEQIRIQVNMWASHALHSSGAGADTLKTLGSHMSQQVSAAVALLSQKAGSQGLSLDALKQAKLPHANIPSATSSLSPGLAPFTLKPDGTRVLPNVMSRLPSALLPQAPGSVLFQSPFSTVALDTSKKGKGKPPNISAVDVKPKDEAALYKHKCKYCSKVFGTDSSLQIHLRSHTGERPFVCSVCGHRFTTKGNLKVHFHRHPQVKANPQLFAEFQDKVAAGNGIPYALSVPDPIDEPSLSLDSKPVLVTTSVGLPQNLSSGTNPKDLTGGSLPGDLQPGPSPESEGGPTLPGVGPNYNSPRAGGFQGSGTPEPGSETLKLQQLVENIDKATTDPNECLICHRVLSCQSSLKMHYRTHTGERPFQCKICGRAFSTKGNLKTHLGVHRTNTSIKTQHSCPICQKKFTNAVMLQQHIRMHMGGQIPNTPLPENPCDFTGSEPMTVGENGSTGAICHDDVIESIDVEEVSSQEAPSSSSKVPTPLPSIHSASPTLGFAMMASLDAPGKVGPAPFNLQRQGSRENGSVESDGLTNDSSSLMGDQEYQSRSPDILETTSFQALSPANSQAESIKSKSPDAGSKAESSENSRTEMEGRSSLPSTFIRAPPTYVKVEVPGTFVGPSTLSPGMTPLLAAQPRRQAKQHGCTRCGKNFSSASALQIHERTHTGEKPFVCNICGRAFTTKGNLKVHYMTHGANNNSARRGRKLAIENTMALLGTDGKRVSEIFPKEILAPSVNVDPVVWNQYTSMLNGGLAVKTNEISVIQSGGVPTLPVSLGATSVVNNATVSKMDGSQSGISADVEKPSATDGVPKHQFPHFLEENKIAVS
Setting: 8-mer, flanks averaged, mean of replicates
Sequence = GCTTGCAC; value = -0.18
Sequence = ATGGCTGA; value = -0.015
Sequence = ATTACCGG; value = -0.07
Sequence = CTGCAAAG; value = -0.153
Sequence = TCCAAACA; value = 0.0611
Sequence = ACCGGAAC; value = -0.222
Sequence = AACAGGCC; value = -0.26
Sequence = CTACTAAG; value = -0.0125

Block 3 — technique: aptamer microarray, sandwich; molecule type: DNA with 2'F-ANA; sample: in vitro; tested at: 200 nM; with: Cy3 exosite-II aptamer, 400 nM; reading: higher = stronger binding; endpoint: mean fluorescence intensity; sequence: GGTTGGTGTGGTTGG
Target: Prothrombin, mature alpha-thrombin (F2, Homo sapiens, UniProt P00734)
Setting: whole 15-mer aptamer, many near background
Modification = 2'F-ANA at 1 2 6 7 9 10 12 13 14; value = 46.9 a.u.
Modification = 2'F-ANA at 1 5 6 13 14; value = 43 a.u.
Modification = 2'F-ANA at 3 5 7 9 10 12; value = 71.8 a.u.
Modification = 2'F-ANA at 2 3 5 6 8 12 14 15; value = 59.8 a.u.
Modification = 2'F-ANA at 1 3 5 6 7 11 12 14; value = 47.9 a.u.
Modification = 2'F-ANA at 3 4 7 11 14; value = 360 a.u.
Modification = 2'F-ANA at 1 2 4 7 9 14; value = 50.3 a.u.
Modification = 2'F-ANA at 1 2 3 4 5 6 7 8 10 12 13 14; value = 47.2 a.u.
Modification = 2'F-ANA at 5 7 10 12 13; value = 45.7 a.u.
Modification = 2'F-ANA at 2 4 6 10 11 12 13 15; value = 80.8 a.u.

Single results of other studies
Substance = PhoQ, residues 284 288 289 292 302 303 ALASRC; target = PhoP, residues 12 14 15 18 19 HEGLL (Escherichia coli, UniProt P23836); assay = Sort-seq, measured: YFP reporter; test system = E. coli; setting = PhoQ-PhoP variant library, with: 10 µM Mg2+; scale = relative to: high Mg2+ state, higher = stronger signaling; endpoint = fold induction; value = 7.28

Repeated from above (block 3):
Modification = 2'F-ANA at 1 2 3 4 5 6 7 8 10 12 13 14; value = 47.2 a.u.
Modification = 2'F-ANA at 5 7 10 12 13; value = 45.7 a.u.
Modification = 2'F-ANA at 2 4 6 10 11 12 13 15; value = 80.8 a.u.
